Assay results pooled from the literature.
Numbers after ± are the reported error.

For `N=C(N)NCCC[C@@H]1NC(=O)[C@H](CCCCNC(=O)CCOCCOCCOCCOCCNC(=O)CC[C@H](NC(=O)CCOCCOCCOCCOCCNC(=O)[C@H](CCCCNC(=O)c2ccc(NN)nc2)NC(=O)c2ccc(NN)nc2)C(=O)NCCOCCOCCOCCOCCC(=O)NCCCC[C@@H]2NC(=O)[C@@H](Cc3ccccc3)NC(=O)[C@H](CC(=O)O)NC(=O)CNC(=O)[C@H](CCCNC(=N)N)NC2=O)NC(=O)[C@@H](Cc2ccccc2)NC(=O)[C@H](CC(=O)O)NC(=O)CNC1=O` [technetium-99m labelled], the tissue uptake was 1.81 ± 0.56 %ID/g (athymic nude mice, tumour; intravenous, 60 min, blocking, added: excess RGD2 14 mg/kg co-injected).
`N=C(N)NCCC[C@@H]1NC(=O)[C@H](CCCCNC(=O)CC[C@H](NC(=O)CCOCCOCCOCCOCCNC(=O)CN2CCN(CC(=O)O)CCN(CC(=O)O)CCN(CC(=O)O)CC2)C(=O)NCCCC[C@@H]2NC(=O)[C@@H](Cc3ccccc3)NC(=O)[C@H](CC(=O)O)NC(=O)CNC(=O)[C@H](CCCNC(=N)N)NC2=O)NC(=O)[C@@H](Cc2ccccc2)NC(=O)[C@H](CC(=O)O)NC(=O)CNC1=O` [indium-111 labelled] gave a tissue uptake of 0.8 ± 0.24 %ID/g (female athymic nude mice, muscle; intravenous, 3 µCi, 1 h, U-87 MG glioma xenograft).
`CC(C)C[C@H](NC(=O)[C@H](Cc1ccc(O)cc1)NC(=O)[C@@H](CCCNC(=N)N)NC(=O)[C@@H](CO)NC(=O)[C@H](Cc1ccccc1)NC(=O)[C@H](CC1CCCCC1)NC(=O)[C@H](CC(=O)O)NC(=O)CCC(C(=O)O)N1CCCN2CCN(CCCN(CC(=O)O)CC2)CC1)C(=O)N[C@@H](Cc1c[nH]c2ccccc12)C(=O)N[C@@H](CO)C(=O)O` (stereo partly shown) [copper-64 labelled] gave a tissue uptake of 1.6 ± 0.1 %ID/g (female NMRI nude mice, liver; 22 h p.i.).
`N=C(N)NCCC[C@@H]1NC(=O)[C@H](CCCCNC(=O)CCOCCOCCOCCOCCNC(=O)CC[C@H](NC(=O)[C@H](CCCCNC(=O)c2ccc(NN)nc2)NC(=O)c2ccc(NN)nc2)C(=O)NCCOCCOCCOCCOCCC(=O)NCCCC[C@@H]2NC(=O)[C@@H](Cc3ccccc3)NC(=O)[C@H](CC(=O)O)NC(=O)CNC(=O)[C@H](CCCNC(=N)N)NC2=O)NC(=O)[C@@H](Cc2ccccc2)NC(=O)[C@H](CC(=O)O)NC(=O)CNC1=O` [technetium-99m labelled] has a tissue uptake of 1.78 ± 0.26 %ID/g (female athymic nude mice, spleen; intravenous, 0.1 MBq, 1 h, U-87 MG glioma xenograft).
The tissue uptake of `CSCC[C@H](NC(=O)[C@H](CC(C)C)NC(=O)[C@H](Cc1c[nH]cn1)NC(=O)CNC(=O)[C@@H](NC(=O)[C@H](C)NC(=O)[C@H](Cc1c[nH]c2ccccc12)NC(=O)[C@H](CCC(N)=O)NC(=O)CNC(=O)[C@H](CO)NC(=O)CNC(=O)CCCCCCCNC(=O)CCC(=O)Nc1ccc(CNC23CNCCNCC(N)(CNCCNC2)CNCCNC3)cc1)C(C)C)C(N)=O` [copper-64 labelled] is reported as 0.093 ± 0.003 %ID/g (female SCID mice, PC-3 xenograft, muscle; intravenous, 0.6 MBq, 4 h).
The tissue uptake of `N=C(N)NCCC[C@@H]1NC(=O)[C@H](CCCCNC(=O)CCOCCOCCOCCOCCNC(=O)CC[C@H](NC(=O)CCOCCOCCOCCOCCNC(=O)CC[C@H](NC(=O)CN2CCN(CC(=O)O)CCN(CC(=O)O)CCN(CC(=O)O)CC2)C(=O)NCCOCCOCCOCCOCCC(=O)N[C@@H](CCC(=O)NCCOCCOCCOCCOCCC(=O)NCCCC[C@@H]2NC(=O)[C@@H](Cc3ccccc3)NC(=O)[C@H](CC(=O)O)NC(=O)CNC(=O)[C@H](CCCNC(=N)N)NC2=O)C(=O)NCCOCCOCCOCCOCCC(=O)NCCCC[C@@H]2NC(=O)[C@@H](Cc3ccccc3)NC(=O)[C@H](CC(=O)O)NC(=O)CNC(=O)[C@H](CCCNC(=N)N)NC2=O)C(=O)NCCOCCOCCOCCOCCC(=O)NCCCC[C@@H]2NC(=O)[C@@H](Cc3ccccc3)NC(=O)[C@H](CC(=O)O)NC(=O)CNC(=O)[C@H](CCCNC(=N)N)NC2=O)NC(=O)[C@@H](Cc2ccccc2)NC(=O)[C@H](CC(=O)O)NC(=O)CNC1=O` [indium-111 labelled] is reported as 0.92 ± 0.06 %ID/g (female athymic nude mice, blood; intravenous, 3 µCi, 0.5 h, U-87 MG glioma xenograft).
`N=C(N)NCCC[C@H](NC(=O)[C@H](CCCCN)NC(=O)[C@H](CCC(N)=O)NC(=O)CCOCCOCCOCCNC(=O)CN1CCN(CC(=O)O)CCN(CC(=O)O)CCN(CC(=O)O)CC1)C(=O)N[C@@H](CCCCN)C(=O)N[C@@H](CCCNC(=N)N)C(=O)N[C@@H](CCCCN)C(=O)N[C@@H](CCCCN)C(=O)N[C@@H](CO)C(=O)N[C@@H](CCCNC(=N)N)C(=O)N[C@@H](Cc1ccc(O)cc1)C(=O)N[C@@H](CCCCN)C(=O)N[C@@H](CO)C(=O)O` [copper-64 labelled] has a tissue uptake of 0.97 ± 0.1 %ID/g (male C57BL/6 mice, B16-F10 tumour, stomach; intravenous, 60 min).
`N=C(N)NCCC[C@@H]1NC(=O)[C@H](CCCCNC(=O)CNC(=O)CNC(=O)CNC(=O)CC[C@H](NC(=O)CNC(=O)CNC(=O)CNC(=O)[C@H](CCCCNC(=O)c2ccc(NN)nc2)NC(=O)c2ccc(NN)nc2)C(=O)NCC(=O)NCC(=O)NCC(=O)NCCCC[C@@H]2NC(=O)[C@@H](Cc3ccccc3)NC(=O)[C@H](CC(=O)O)NC(=O)CNC(=O)[C@H](CCCNC(=N)N)NC2=O)NC(=O)[C@@H](Cc2ccccc2)NC(=O)[C@H](CC(=O)O)NC(=O)CNC1=O` [technetium-99m labelled] gave a tissue uptake of 1.74 ± 0.98 %ID/g (female athymic nude mice, spleen; intravenous, 0.1 MBq, 1 h, U-87 MG glioma xenograft).
The tissue uptake of `N=C(N)NCCC[C@@H]1NC(=O)[C@H](CCCCNC(=O)CC[C@H](NC(=O)CCOCCOCCOCCOCCNC(=O)CC[C@H](NC(=O)CN2CCN(CC(=O)O)CCN(CC(=O)O)CCN(CC(=O)O)CC2)C(=O)NCCOCCOCCOCCOCCC(=O)N[C@@H](CCC(=O)NCCCC[C@@H]2NC(=O)[C@@H](Cc3ccccc3)NC(=O)[C@H](CC(=O)O)NC(=O)CNC(=O)[C@H](CCCNC(=N)N)NC2=O)C(=O)NCCCC[C@@H]2NC(=O)[C@@H](Cc3ccccc3)NC(=O)[C@H](CC(=O)O)NC(=O)CNC(=O)[C@H](CCCNC(=N)N)NC2=O)C(=O)NCCCC[C@@H]2NC(=O)[C@@H](Cc3ccccc3)NC(=O)[C@H](CC(=O)O)NC(=O)CNC(=O)[C@H](CCCNC(=N)N)NC2=O)NC(=O)[C@@H](Cc2ccccc2)NC(=O)[C@H](CC(=O)O)NC(=O)CNC1=O` [indium-111 labelled] is reported as 0.05 ± 0.01 %ID/g (female athymic nude mice, brain; intravenous, 3 µCi, 24 h, U-87 MG glioma xenograft).
`CSCC[C@H](NC(=O)[C@H](CC(C)C)NC(=O)[C@H](Cc1c[nH]cn1)NC(=O)CNC(=O)[C@@H](NC(=O)[C@H](C)NC(=O)[C@H](Cc1c[nH]c2ccccc12)NC(=O)[C@H](CCC(N)=O)NC(=O)CCCCCCCNC(=O)CCC(=O)Nc1ccc(CNC23CNCCNCC(N)(CNCCNC2)CNCCNC3)cc1)C(C)C)C(N)=O` [copper-64 labelled] has a tissue uptake of 0.367 ± 0.026 %ID/g (female SCID mice, PC-3 xenograft, lung; intravenous, 0.6 MBq, 24 h).

Excerpt of the above:
The tissue uptake of `CSCC[C@H](NC(=O)[C@H](CC(C)C)NC(=O)[C@H](Cc1c[nH]cn1)NC(=O)CNC(=O)[C@@H](NC(=O)[C@H](C)NC(=O)[C@H](Cc1c[nH]c2ccccc12)NC(=O)[C@H](CCC(N)=O)NC(=O)CNC(=O)[C@H](CO)NC(=O)CNC(=O)CCCCCCCNC(=O)CCC(=O)Nc1ccc(CNC23CNCCNCC(N)(CNCCNC2)CNCCNC3)cc1)C(C)C)C(N)=O` [copper-64 labelled] is reported as 0.093 ± 0.003 %ID/g (female SCID mice, PC-3 xenograft, muscle; intravenous, 0.6 MBq, 4 h).
